Measured values of several laboratories.
Every numbered part comes from another study and shows a few of its results, in no order. Positions count from the first letter of the parent shown.

Block 1
Target: RNA binding protein fox-1 homolog 2, RRM domain, GST-SBP tag (RBFOX2, Homo sapiens, UniProt O43251-10, residues 100-194)
Technique: RNA Bind-n-Seq
Molecule type: RNA
Matrix: in vitro
Tested at: 365 nM
Notes: natural RNA segment, single round, ends assumed
Relative to: no-protein control
Reading: higher = stronger binding
Endpoint: RBNS enrichment (R)
Shared flanks, not repeated: GGGAGUUCUACAGUCCGACGAUC … UGGAAUUCUCGGGUGCCAA
Construct (chain): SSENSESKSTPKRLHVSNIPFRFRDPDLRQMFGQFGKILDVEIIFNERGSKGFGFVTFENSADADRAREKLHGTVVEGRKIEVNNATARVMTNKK
UUUAAAAAAUAAUUUGAGUGCUUGGAAACUAUUAGCUUUUUAAGUUCCUUCCAAAUAUGUUAGUACCUACCCUUUACUUUUUCCCCAAGACCAUCUCAGGGUGGAGCAUU: 0.901
CCUGCUGUCCUGUUGGAAAGUUCUGGAAGUUAAGGACGGAGAGUGCUGUUUGUAAUGCAGUCUUCCAUUCUGUGAGUCUUUGAUUCUCCAUGCUGGCUAGAAGUUGGCCA: 0.338
AGGACCACUGCACCACAGGCCUUGUCCAGUGUUCUAUCCCCUCUGAAGAGUCAGGCGAGGCCUGAUGGCUUUUAGGCCUUUCAUUCAACCAAUGUCAUUGUCCAAACAGA: 0.359
GUAAUCACUGGAUUUCAAAACCAUGUUUUAGCCCUUCAUUAAUGAAGCCUGUUGUACAGAUUUAGAGUCUUACAAUAUGAGGGAAGUUGGUUCUGGGAAGGUAAGAUGUA: 0.836
CUCAAAGGACCAAAUUUCUUUGGCCAAAGAAGUUGCUUCUAUGUUAGUCCCAUACCCUGAAGUAAUAUGUACCAUGGCUCCCACCUACCUGUUUAUGCUCUCCCUGCCCC: 0.805
AAGAGAGUUGAGUGAAUCUGUUUACAUUUAGGAUAAUGUUUUUUUCUUCAAAAGACGCAAUUGCAAUAGUAUUUUUUAGAUUUUAUCCAAGAAGUUUUUUGGGCAAAAAU: 0.605
CAUCGGGCAGACUUUCUGCCACUGGCUUUUCAAACACUGUCAAUUGGGUUAUUUUUUUACACAGCUGGUAAAGAGGAUUAUUCUGAAGAGUCAAAUGGACAGUAGAAGCA: 5.35

Block 2
Target: Centromere-binding protein 1, full length, His-tagged (CBF1, Saccharomyces cerevisiae, UniProt P17106, residues 1-351)
UniProt P17106, sequence (whole entry, looked up): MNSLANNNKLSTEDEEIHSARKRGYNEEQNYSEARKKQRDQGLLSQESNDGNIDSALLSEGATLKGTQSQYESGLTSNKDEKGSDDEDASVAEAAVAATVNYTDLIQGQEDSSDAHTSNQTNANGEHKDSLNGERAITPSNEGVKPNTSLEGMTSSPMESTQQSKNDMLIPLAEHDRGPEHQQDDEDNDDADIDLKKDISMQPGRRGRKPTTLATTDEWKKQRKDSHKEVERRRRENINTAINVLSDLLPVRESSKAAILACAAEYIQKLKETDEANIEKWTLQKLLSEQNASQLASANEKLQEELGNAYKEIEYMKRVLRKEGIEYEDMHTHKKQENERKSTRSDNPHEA
Technique: competition protein-binding microarray
Molecule type: double-stranded DNA, one strand shown
Matrix: in vitro
Tested at: 2 µM
Notes: whole 60-bp probe, lowest competitor level
Together with: Pho4 competitor, 0.05 µM
Reading: higher = stronger binding
Endpoint: fluorescence intensity
Shared flanks, not repeated: … GTCTTGATTCGCTTGACGCTGCTG
AAGAAAGTTCCACTTCACGTTTCCCCAGCTTTCCGG: 87.3 a.u.
ACCACAGTGTCGGCCAACGTGCTTTACATTGAAGAT: 108 a.u.
GATACCAGGAATGTAACCGTGACGGTCAGCATAATC: 76 a.u.
CATACCCAACCTTGTAGCGTGGGTGAAGATATTTGT: 71.2 a.u.
AGGATGAGGAGGAGTTAGCAGAGGTATTCGCTAAGC: 61 a.u.
AGCAGCATTATCCATGACATGACAAGGATCTACCGA: 62.8 a.u.
CTTCTGTAAATTTGATGGGTGGGTGGACGCGCCCCG: 89.1 a.u.

Other studies, line by line
CCNB2: CCNB2, cyclin fold, Cln2 fusion (human)
P1: MASTL docking peptide (human); PMIAKNLMCELDE; partner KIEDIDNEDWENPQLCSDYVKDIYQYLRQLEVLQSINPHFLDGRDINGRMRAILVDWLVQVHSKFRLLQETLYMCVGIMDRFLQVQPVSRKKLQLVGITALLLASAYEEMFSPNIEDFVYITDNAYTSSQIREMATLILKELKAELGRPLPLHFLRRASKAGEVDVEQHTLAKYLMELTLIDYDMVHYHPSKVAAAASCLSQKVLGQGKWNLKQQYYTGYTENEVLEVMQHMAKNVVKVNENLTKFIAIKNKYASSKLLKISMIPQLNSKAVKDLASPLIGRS
P1 M2A  normalised enrichment score (CCNB2; yeast growth competition, sequencing; yeast; weak parent motif; relative to: not given, higher = stronger binding): 0.605
PhoQ, residues 284 288 289 292 302 303 TYGVAM  fold induction (PhoP, residues 12 14 15 18 19 SYFRT (Escherichia coli, UniProt P23836); Sort-seq, measured: YFP reporter; E. coli; PhoQ-PhoP variant library, together with: 10 µM Mg2+; relative to: high Mg2+ state, higher = stronger signaling): 10.8
P1 M8Q  normalised enrichment score (CCNB2; yeast growth competition, sequencing; yeast; weak parent motif; relative to: not given, higher = stronger binding): 0.0197
HRRRLLFACSPPPASQ  enrichment score (Saccharomyces cerevisiae; mating pheromone growth arrest, pooled competitive growth deep sequencing; peptide, no Cln2 overexpression; peptide tiling library; direction not given): 0.249
P1 D12T  normalised enrichment score (CCNB2; yeast growth competition, sequencing; yeast; weak parent motif; relative to: not given, higher = stronger binding): 1.1
